Measured values pooled from the literature.
A part holds a random share of what one study measured.
Sequence of UniProt P37023 (whole entry, looked up): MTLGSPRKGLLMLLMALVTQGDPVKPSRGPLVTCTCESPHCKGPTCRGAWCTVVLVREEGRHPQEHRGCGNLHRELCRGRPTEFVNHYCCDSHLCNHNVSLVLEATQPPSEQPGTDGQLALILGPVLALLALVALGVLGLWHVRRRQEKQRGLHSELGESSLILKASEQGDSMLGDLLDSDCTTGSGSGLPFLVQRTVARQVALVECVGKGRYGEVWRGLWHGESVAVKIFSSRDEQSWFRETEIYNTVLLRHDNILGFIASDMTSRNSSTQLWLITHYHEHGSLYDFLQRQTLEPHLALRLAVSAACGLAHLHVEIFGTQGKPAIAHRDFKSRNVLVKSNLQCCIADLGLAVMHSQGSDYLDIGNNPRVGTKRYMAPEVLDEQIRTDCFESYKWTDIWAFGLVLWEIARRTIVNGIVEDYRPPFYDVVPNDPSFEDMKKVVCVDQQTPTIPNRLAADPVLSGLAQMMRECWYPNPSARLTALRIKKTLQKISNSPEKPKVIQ
Sequence of UniProt O95382 (whole entry, looked up): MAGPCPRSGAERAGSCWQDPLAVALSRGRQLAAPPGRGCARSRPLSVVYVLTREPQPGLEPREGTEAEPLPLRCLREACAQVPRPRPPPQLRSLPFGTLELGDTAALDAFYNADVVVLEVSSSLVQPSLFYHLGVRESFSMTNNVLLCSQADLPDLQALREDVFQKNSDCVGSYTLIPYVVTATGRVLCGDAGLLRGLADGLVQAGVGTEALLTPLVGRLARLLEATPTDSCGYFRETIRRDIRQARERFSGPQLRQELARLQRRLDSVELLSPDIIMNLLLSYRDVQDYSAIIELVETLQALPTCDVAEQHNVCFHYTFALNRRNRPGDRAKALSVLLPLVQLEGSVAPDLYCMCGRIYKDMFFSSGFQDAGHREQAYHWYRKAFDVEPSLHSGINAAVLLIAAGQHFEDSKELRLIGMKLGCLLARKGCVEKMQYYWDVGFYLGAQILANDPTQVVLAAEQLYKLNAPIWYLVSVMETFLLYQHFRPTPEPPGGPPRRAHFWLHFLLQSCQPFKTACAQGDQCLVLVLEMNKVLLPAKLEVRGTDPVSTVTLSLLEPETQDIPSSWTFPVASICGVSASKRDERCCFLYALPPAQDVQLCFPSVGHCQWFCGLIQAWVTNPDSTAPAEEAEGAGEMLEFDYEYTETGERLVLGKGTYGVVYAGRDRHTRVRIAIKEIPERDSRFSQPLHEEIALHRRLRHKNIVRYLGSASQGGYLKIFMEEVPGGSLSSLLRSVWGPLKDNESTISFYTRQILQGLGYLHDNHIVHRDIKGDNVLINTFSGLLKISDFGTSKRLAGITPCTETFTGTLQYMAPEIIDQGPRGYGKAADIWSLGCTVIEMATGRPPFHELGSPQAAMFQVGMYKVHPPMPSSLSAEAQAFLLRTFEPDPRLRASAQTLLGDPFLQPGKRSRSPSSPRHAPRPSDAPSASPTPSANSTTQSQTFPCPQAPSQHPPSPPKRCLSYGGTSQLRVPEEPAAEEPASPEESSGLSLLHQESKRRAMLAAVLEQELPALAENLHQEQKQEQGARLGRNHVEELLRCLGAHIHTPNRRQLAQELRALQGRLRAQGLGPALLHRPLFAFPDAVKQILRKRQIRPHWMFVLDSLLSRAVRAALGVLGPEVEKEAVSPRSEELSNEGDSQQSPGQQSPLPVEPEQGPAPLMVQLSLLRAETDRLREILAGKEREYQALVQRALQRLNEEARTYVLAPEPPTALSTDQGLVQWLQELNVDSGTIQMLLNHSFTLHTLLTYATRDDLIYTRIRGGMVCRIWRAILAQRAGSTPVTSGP
Sequence of UniProt Q15418 (whole entry, looked up): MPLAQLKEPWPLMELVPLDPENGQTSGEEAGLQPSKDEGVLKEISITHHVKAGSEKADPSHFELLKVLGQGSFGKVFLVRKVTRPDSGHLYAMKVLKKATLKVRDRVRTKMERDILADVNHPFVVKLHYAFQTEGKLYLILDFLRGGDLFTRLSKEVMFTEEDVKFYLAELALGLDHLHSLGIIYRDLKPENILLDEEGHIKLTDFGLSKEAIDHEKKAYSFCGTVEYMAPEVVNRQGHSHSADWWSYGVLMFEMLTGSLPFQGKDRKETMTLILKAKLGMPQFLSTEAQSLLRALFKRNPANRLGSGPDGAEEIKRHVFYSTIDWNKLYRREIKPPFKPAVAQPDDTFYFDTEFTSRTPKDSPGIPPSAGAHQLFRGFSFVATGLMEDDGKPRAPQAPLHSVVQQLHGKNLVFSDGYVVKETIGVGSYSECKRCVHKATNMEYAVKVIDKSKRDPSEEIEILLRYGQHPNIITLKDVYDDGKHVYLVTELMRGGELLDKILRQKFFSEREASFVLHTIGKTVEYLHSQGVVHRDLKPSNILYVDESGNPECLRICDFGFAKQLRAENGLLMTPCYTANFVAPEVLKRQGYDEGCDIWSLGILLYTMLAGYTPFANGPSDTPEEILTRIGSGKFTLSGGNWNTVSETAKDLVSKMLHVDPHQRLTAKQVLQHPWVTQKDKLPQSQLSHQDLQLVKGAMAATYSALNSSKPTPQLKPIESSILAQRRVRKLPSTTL
Sequence of UniProt Q14012 (whole entry, looked up): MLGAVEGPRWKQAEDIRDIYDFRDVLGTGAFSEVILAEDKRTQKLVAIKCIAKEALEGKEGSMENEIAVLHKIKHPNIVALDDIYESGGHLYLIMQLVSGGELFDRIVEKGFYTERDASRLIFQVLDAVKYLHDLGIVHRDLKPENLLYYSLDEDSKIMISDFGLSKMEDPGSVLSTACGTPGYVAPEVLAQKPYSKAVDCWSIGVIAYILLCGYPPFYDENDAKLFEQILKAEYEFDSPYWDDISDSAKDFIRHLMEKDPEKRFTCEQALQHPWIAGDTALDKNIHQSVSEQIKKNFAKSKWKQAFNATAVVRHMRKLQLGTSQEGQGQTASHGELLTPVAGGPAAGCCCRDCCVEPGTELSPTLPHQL

Sample 1 — host: human; medium: microsomes or S9; concentration: 2 µM; time: 0.5 h; endpoint: remaining compound
Cc1csc(C2=C(N)N(CC(C)C)CC2=O)n1: 78.7%
O=c1cc(-c2ccc(F)cc2)ncn1C1CCCC1: 4.35%
COc1ccc(-c2cc(CNC(=O)c3ccc(=O)[nH]n3)no2)cc1OC: 66%
Cc1ccccc1C(C)NS(=O)(=O)c1ccc(Cl)c(-c2nnn[nH]2)c1 (stereo not shown): > 100%
O=S(=O)(O)c1ccc(-c2cnc(-c3ccc(-c4ncc(-c5ccc(S(=O)(=O)O)cc5)o4)cc3)o2)cc1: 83.8%
Cc1nc2c([nH]1)CCC(C(=O)Nc1onc3c1CCCC3)C2 (stereo not shown): > 99.9%

Sample 2 — organism: Sarcocystis neurona; effect on: parasite growth; concentration: 10 µM; time: 96 h; notes: second screen; relative to: untreated; endpoint: log2 fold change
C#C[C@]1(O)CC[C@H]2[C@@H]3CCC4=Cc5oncc5C[C@]4(C)[C@H]3CC[C@@]21C: -0.22
CC(=O)[C@H]1CC[C@H]2[C@@H]3CCC4=CC(=O)CC[C@]4(C)[C@H]3CC[C@]12C: 0.15
CC(C)C[C@H](NC(=O)[C@@H](O)[C@H](N)Cc1ccccc1)C(=O)O: 0.52
CC(=O)S[C@@H]1CC2=CC(=O)CC[C@]2(C)[C@H]2CC[C@@]3(C)[C@@H](CC[C@@]34CCC(=O)O4)[C@H]12: 0.16
CNCC[C@@H](Oc1ccccc1C)c1ccccc1: 0.43
CC1COc2c(N3CCN(C)CC3)c(F)cc3c(=O)c(C(=O)O)cn1c23 (stereo not shown): 0.35

Sample 3 — effect on: enzyme activity; mode: inhibitor; concentration: 0.5 µM; relative to: control; endpoint: remaining activity
Target: Ribosomal protein S6 kinase alpha-4 (RPS6KA4, Homo sapiens, UniProt O75676)
Sequence of UniProt O75676 (whole entry, looked up): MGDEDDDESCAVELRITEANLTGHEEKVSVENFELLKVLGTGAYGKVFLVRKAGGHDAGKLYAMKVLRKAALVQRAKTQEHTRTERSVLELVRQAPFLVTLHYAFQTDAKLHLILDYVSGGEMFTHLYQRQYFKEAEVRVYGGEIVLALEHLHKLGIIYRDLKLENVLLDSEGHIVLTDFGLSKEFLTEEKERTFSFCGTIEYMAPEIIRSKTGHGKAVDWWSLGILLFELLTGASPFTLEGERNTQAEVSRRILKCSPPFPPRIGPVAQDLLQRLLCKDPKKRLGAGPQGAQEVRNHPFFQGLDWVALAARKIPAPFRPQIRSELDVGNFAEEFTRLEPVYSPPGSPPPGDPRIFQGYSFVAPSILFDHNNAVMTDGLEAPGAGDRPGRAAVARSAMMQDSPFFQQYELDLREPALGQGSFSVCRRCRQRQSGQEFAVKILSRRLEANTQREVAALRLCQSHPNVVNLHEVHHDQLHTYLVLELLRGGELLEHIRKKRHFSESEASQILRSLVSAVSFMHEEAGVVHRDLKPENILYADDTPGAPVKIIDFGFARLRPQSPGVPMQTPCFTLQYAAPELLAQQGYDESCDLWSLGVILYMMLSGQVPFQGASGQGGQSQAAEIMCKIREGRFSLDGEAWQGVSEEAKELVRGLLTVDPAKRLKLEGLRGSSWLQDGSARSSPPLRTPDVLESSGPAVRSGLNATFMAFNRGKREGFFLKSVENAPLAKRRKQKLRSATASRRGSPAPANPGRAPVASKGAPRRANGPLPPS
C#Cc1cccc(Nc2ncnc3cc(OCCOC)c(OCCOC)cc23)c1: 96%
Cc1ccc(NC(=O)c2ccc(CN3CCN(C)CC3)cc2)cc1Nc1nc(-c2cccnc2)cs1: 101%
COc1cc2ncnc(Nc3ccc(F)c(Cl)c3)c2cc1OCCCN1CCOCC1: 104%
OCC(O)CCON=C1C(c2c(O)[nH]c3ccccc23)=Nc2ccccc21 (stereo not shown): 21.7%
COc1cc2nccc(Oc3ccc(NC(=S)NC(=O)c4ccccc4C)cc3)c2cc1OC: 99.7%
CCOC(=O)c1c(C)[nH]c(/C=C2\C(=O)Nc3ccccc32)c1C: 87%
O=S(=O)(c1cccc2cnccc12)N1CCCNCC1: 81.8%
Nc1ccc2ncnc(NCCc3ccc(Oc4ccccc4)cc3)c2c1: 107%
O=C1NC(=O)C(c2cn(CCCO)c3ncccc23)=C1c1cnccn1: 101%
O=c1c2ccccc2[nH]c(=S)n1CCN1CCC(=C(c2ccc(F)cc2)c2ccc(F)cc2)CC1: 103%
Cc1nc(-c2ccccc2)c(-c2ccncc2)o1: 93.7%
CO[C@H]1C[C@@H]2CC[C@@H](C)[C@@](O)(O2)C(=O)C(=O)N2CCCC[C@H]2C(=O)O[C@H]([C@H](C)C[C@@H]2CC[C@@H](O)[C@H](OC)C2)CC(=O)[C@H](C)/C=C(\C)[C@@H](O)[C@@H](OC)C(=O)[C@H](C)C[C@H](C)/C=C/C=C/C=C/1C: 91.8%
N#CC(C#N)=C(N)/C(C#N)=C/c1ccc(O)cc1: 99.7%

Sample 4 — technique: competition with immobilised ligand; concentration: 0.1 µM; endpoint: remaining binding
Compound: Cn1nc(C(=O)NCc2ccc(C(=O)O)cc2)cc1-c1ccc2[nH]ccc2c1
CAMK1 (Homo sapiens, UniProt Q14012); cell-free assay: 95%
PIKFYVE (Homo sapiens, UniProt Q9Y2I7); cell-free assay: 100%
Ribosomal protein S6 kinase alpha-1, C-terminal kinase domain (RPS6KA1, Homo sapiens, UniProt Q15418); cell-free assay: 95%
MAP3K6 (Homo sapiens, UniProt O95382); cell-free assay: 88%
EGFR (Homo sapiens, UniProt P00533, A750P/del747-749); cell-free assay: 92%
ACVRL1 (Homo sapiens, UniProt P37023); binding: 97%

For quick reference, copied from above (sample 2):
CC(=O)[C@H]1CC[C@H]2[C@@H]3CCC4=CC(=O)CC[C@]4(C)[C@H]3CC[C@]12C: 0.15
CC(=O)S[C@@H]1CC2=CC(=O)CC[C@]2(C)[C@H]2CC[C@@]3(C)[C@@H](CC[C@@]34CCC(=O)O4)[C@H]12: 0.16
C#C[C@]1(O)CC[C@H]2[C@@H]3CCC4=Cc5oncc5C[C@]4(C)[C@H]3CC[C@@]21C: -0.22
CC1COc2c(N3CCN(C)CC3)c(F)cc3c(=O)c(C(=O)O)cn1c23 (stereo not shown): 0.35
CNCC[C@@H](Oc1ccccc1C)c1ccccc1: 0.43
